# Results collected from several papers.
# Lines come from different studies, so protocols differ. ± marks the error that the study gave.
# CHRM1: Muscarinic acetylcholine receptor M1 (CHRM1, Homo sapiens, UniProt P11229)
# UniProt P11229, sequence (whole entry, looked up): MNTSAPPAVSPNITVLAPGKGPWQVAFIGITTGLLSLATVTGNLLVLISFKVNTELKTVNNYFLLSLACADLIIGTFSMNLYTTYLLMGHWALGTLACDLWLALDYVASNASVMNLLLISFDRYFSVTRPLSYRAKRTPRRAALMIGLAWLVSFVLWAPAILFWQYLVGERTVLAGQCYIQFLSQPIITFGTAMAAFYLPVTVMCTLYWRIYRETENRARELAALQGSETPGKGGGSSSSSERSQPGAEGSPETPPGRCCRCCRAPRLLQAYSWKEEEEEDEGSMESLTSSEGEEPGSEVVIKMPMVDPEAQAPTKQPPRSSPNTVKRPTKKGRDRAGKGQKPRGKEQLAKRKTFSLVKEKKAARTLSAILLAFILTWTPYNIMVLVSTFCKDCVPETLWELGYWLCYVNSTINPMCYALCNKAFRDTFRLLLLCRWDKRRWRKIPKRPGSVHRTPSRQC
Molecule,tested on,test,test system,setting,how to read,measurement,result
CCC(C)n1ncn(-c2ccc(N3CCN(c4ccc(OCC5COC(Cn6cncn6)(c6ccc(Cl)cc6Cl)O5)cc4)CC3)cc2)c1=O (stereo not drawn),,"enzyme activity, inhibitor",mouse kidney homogenate,"10 µM, added: 50 nM corticosterone",baseline: mouse over human enzyme,potency ratio,≥ 10 fold
Cn1cc(-c2ccc(COc3ccccc3-c3cc(=O)n(C4CCCCC4O)cn3)cn2)cn1 (stereo not drawn),CHRM1,"allosteric agonist, IP1 accumulation",CHO-M1 cells,"10 µM, unit not given",baseline: maximum ACh response,change in baseline activity,78.7 ± 3.4
CC[C@@H]([C@H](C)O)n1ncn(-c2ccc(N3CCN(c4ccc(OC[C@@H]5CO[C@@](Cn6cncn6)(c6ccc(F)cc6F)C5)cc4)CC3)cc2)c1=O,,"enzyme activity, inhibitor",rat kidney homogenate,"10 µM, added: 50 nM corticosterone",baseline: rat over human enzyme,potency ratio,~2 fold
AAEDWCKKGDT,,,"peptide, human polyclonal IgM RF MCC","concentration not given, 5 µg/mL mAb II-481 coated, added: RF at 50% max binding concentration",,inhibition,0%
O=c1cc(-c2ccccc2OCc2ccc(Br)cc2F)ncn1C1CCCCC1O (stereo not drawn),CHRM1,"allosteric agonist, IP1 accumulation",CHO-M1 cells,"1 µM, unit not given",baseline: maximum ACh response,change in baseline activity,-7.4 ± 2.5
Nc1nc2c(ncn2[C@@H]2O[C@H](COP(=O)(O)OP(=O)(O)OP(=O)(O)OC[C@H]3O[C@@H](n4cnc5c(N)ncnc54)[C@H](O)[C@@H]3O)[C@@H](O)[C@H]2O)c(=O)[nH]1,,,rabbit reticulocyte lysate,"1 h, luciferase mRNA capped with compound",baseline: m7GpppG-capped mRNA,relative translation efficiency,0.19 ± 0.1
CIKVAVS,,,"peptide, human polyclonal IgM RF WEAK","concentration not given, 5 µg/mL mAb II-481 coated, added: RF at 50% max binding concentration",,inhibition,0%
CC(O)C(C)n1ncn(-c2ccc(N3CCN(c4ccc(OCC5COC(Cn6cncn6)(c6ccc(Cl)cc6Cl)O5)cc4)CC3)cc2)c1=O (stereo not drawn),,"enzyme activity, inhibitor",mouse kidney homogenate,"10 µM, added: 50 nM corticosterone",baseline: mouse over human enzyme,potency ratio,≥ 10 fold
HIWWNDN,,,"peptide, human polyclonal IgM RF CLAU","concentration not given, 5 µg/mL mAb II-481 coated, added: RF at 50% max binding concentration",,inhibition,32%
CO[C@H]1[C@@H](O)[C@H]([n+]2cn(C)c3c(=O)[nH]c(N)nc32)O[C@@H]1COP(=O)([O-])OP(=O)(O)OP(=O)(O)OC[C@H]1O[C@@H](n2cnc3c(=O)[nH]c(N)nc32)[C@H](O)[C@@H]1O,,,rabbit reticulocyte lysate,"1 h, luciferase mRNA capped with compound",baseline: m7GpppG-capped mRNA,relative translation efficiency,1.6
LHNHYT,,,"peptide, human polyclonal IgM RF WEAK","concentration not given, 5 µg/mL mAb II-481 coated, added: RF at 50% max binding concentration",,inhibition,0%
O=c1cc(-c2ccccc2OCc2ccc(Cl)nc2)ncn1C1CCCCC1O (stereo not drawn),CHRM1,"allosteric agonist, IP1 accumulation",CHO-M1 cells,"1 µM, unit not given",baseline: maximum ACh response,change in baseline activity,-6.4 ± 2.3

# Some of these lines once more:
Molecule,tested on,test,test system,setting,how to read,measurement,result
AAEDWCKKGDT,,,"peptide, human polyclonal IgM RF MCC","concentration not given, 5 µg/mL mAb II-481 coated, added: RF at 50% max binding concentration",,inhibition,0%
